Assay results gathered from unrelated publications.
Compare with care: the assays were run in different laboratories. Several values in a cell are separate wells, animals, samples, runs or records. ± marks the error that the study gave.
HTR2C: 5-hydroxytryptamine receptor 2C (HTR2C, Homo sapiens, UniProt P28335)
HTR2A: 5-hydroxytryptamine receptor 2A (HTR2A, Homo sapiens, UniProt P28223)
MAP3K13: Mitogen-activated protein kinase kinase kinase 13 (MAP3K13, Homo sapiens, UniProt O43283)
Protein kinase C-like 1: Protein kinase C-like 1 (Candida albicans, UniProt P43057)

SMILES | target | test | test system | conditions | how to read | quantity | result
NCCCC(=O)O | Sodium- and chloride-dependent taurine transporter (SLC6A6, Homo sapiens, UniProt P31641, L306A) | binding, microscale thermophoresis | – | 1.95 µM, room temperature, with: 50 nM labelled protein | higher = more binding | normalised MST signal | -0.143
Nc1ncnc2c1ncn2[C@@H]1O[C@H](COP(=O)(O)CP(=O)(O)OP(=O)(O)O)[C@@H](O)[C@H]1O | P2X purinoceptor 1 (P2RX1, Homo sapiens, UniProt P51575, K215A) | saturation binding | HEK293 | 25 nM | – | specific binding | 2130 CCPM and 2600 CCPM
CC(=O)OCC[N+](C)(C)C | CHRNB4/CHRNA6 (Homo sapiens, UniProt P30926+Q15825, E185F) | two-electrode voltage clamp | Xenopus oocytes | α6β4 E155F mutant | reference: wild type | current | decreased
Nc1ncnc2c1ncn2[C@@H]1O[C@H](CO[P@](=O)(O)O[P@](=O)(O)O[P@@](=O)(O)S)[C@@H](O)[C@H]1O | GUK1 (Homo sapiens, UniProt Q16774) | ITC | – | molar ratio 0.6998 | – | ΔH | -1.29 kcal/mol
O=C(O)c1ccc(Nc2ncc3c(n2)-c2ccc(Cl)cc2C(c2c(F)cccc2F)=NC3)cc1 | human IKKα(h) | kinase activity | – | 1 µM | – | remaining activity | 114%
Nc1ccc2cc3ccc(N)cc3nc2c1 | Chymotrypsinogen A, activated (alpha-chymotrypsin) (Bos taurus, UniProt P00766) | isothermal titration calorimetry | – | concentration not given, pH 7.4, 25 °C | – | entropic contribution to binding | -6.72 ± 1.12 kcal/mol
O=C(O)[C@@H](O)[C@H](O)C(=O)O | Uncharacterized protein (Pelagibacter ubique, UniProt Q4FKX4) | differential scanning fluorimetry | Candidatus Pelagibacter ubique | in-house screen | – | thermal shift | 2.23 °C
COc1cccc(OC[C@H]2CN(CCN3CCc4ccccc43)CCO2)c1 | HTR2C | radioligand binding | – | concentration not given, with: [3H]mesulergine | – | inhibition | 3.1%
Cc1ccc(N2CC(C(N)=O)CC2=O)cc1 (centres unmarked) | Histone acetyltransferase type B catalytic subunit (Homo sapiens, UniProt O14929) | binding, affinity selection mass spectrometry | – | – | reference: other proteins in batch | fold enrichment | 0.889
O=C1N[C@H](c2cncc(C#Cc3ccccc3)c2)[C@@H](c2ccccc2Cl)O1 | Metabotropic glutamate receptor 5 (Macaca mulatta, UniProt A0ACM8QRY8) | receptor occupancy, PET | rhesus monkey | intravenous | – | ED50 | 0.11 ± 0.02 mg/kg
COc1cc(NC(=O)c2ccccn2)ccc1/N=N/c1ccccc1Cl | Metabotropic glutamate receptor 2 (GRM2, Homo sapiens, UniProt Q14416) | positive allosteric modulator, IP accumulation | HEK293 | 30 µM, in the dark, with: low-dose orthosteric agonist | – | activation | 1.17%
O=C(COP(=O)(O)O)[C@@H](O)[C@H](O)[C@H](O)COP(=O)(O)O | Prohibitin 1 (PHB1, Homo sapiens, UniProt P35232) | thermal proteome profiling | HepG2 cell lysate | 57 over 37 °C | reference: compound over control | thermal stability ratio | 0.679
Cc1nc(CSc2nc(SCc3ccc(C(C)C)cc3)nc(=O)[nH]2)cs1 | DNA topoisomerase 2-alpha (TOP2A, Homo sapiens, UniProt P11388) | decatenation | – | 125 µM | – | mean decatenated DNA | 0%
Cc1cccc(N2CC(C(=O)O)CC2=O)c1 (centres unmarked) | E3 ubiquitin-protein ligase CHIP (STUB1, Homo sapiens, UniProt Q9UNE7) | binding, affinity selection mass spectrometry | – | – | reference: other proteins in batch | fold enrichment | 0.831
NC(=O)C1=CN([C@@H]2O[C@H](COP(=O)(O)OP(=O)(O)OC[C@H]3O[C@@H](n4cnc5c(N)ncnc54)[C@H](OP(=O)(O)O)[C@@H]3O)[C@@H](O)[C@H]2O)C=CC1 | FSP1, ancestral | substrate | – | co-substrate fixed | – | Km | 29.3 ± 6.26 µM
O=C(O)C1CCCNC1 (centres unmarked) | Sodium- and chloride-dependent taurine transporter (SLC6A6, Homo sapiens, UniProt P31641, Y138A) | binding, microscale thermophoresis | – | 244 nM, room temperature, with: 50 nM labelled protein | higher = more binding | normalised MST signal | 0.112
N#Cc1ccc2[nH]cc(CCCCN3CCN(c4ccc5oc(C(N)=O)cc5c4)CC3)c2c1 | Sodium-dependent serotonin transporter (SLC6A4, Homo sapiens, UniProt P31645, Y495A) | [3H]5-HT uptake, inhibitor | COS-7 | – | – | Hill coefficient | 1.55 ± 0.39
CNc1ncc2c(/C=C/C(=O)N3CCC(OC)CC3)nn(Cc3cccc(C(F)(F)F)c3)c2n1 | Serine/threonine-protein kinase D3 (PRKD3, Homo sapiens, UniProt O94806) | kinase activity, inhibitor | – | 1 µM | reference: untreated control | remaining activity | 89%

SMILES | target | test | test system | conditions | how to read | quantity | result
Cc1ncccc1OC[C@@H]1CN(CCN2CCc3ccccc32)CCO1 | HTR2A | radioligand binding | – | concentration not given, with: [3H]ketanserin | – | inhibition | 33.9%
Nc1ccc(C(=O)O)cc1 | BEST1, with wild-type BEST1 (Homo sapiens, UniProt O76090, R218H) | ion current, whole-cell patch clamp | HEK293 co-expressing mutant and wild-type | concentration not given, voltage -20 mV | – | current density | -4.64 pA/pF and -1.85 pA/pF and -5.09 pA/pF and -3.11 pA/pF and -6.88 pA/pF and -3.1 pA/pF and -0.86 pA/pF and -0.9 pA/pF
CCCCCCCC/C=C\CCCCCCCC(=O)NCCc1ccc(O)c(O)c1 | Transient receptor potential cation channel subfamily V member 1 (Trpv1, Mus musculus, UniProt Q704Y3, T557S) | ion current, agonist, whole-cell patch clamp | – | T557S | reference: 3 mM 2-APB | maximal open probability | 0.37 ± 0.14
CO[C@H]1O[C@H](COS(=O)(=O)O)[C@@H](O[C@@H]2O[C@@H](C(=O)O)[C@@H](O[C@H]3O[C@H](COS(=O)(=O)O)[C@@H](O[C@@H]4O[C@H](C(=O)O)[C@@H](O[C@H]5O[C@H](COS(=O)(=O)O)[C@@H](O)[C@H](O)[C@H]5NS(=O)(=O)O)[C@H](O)[C@H]4O)[C@H](OS(=O)(=O)O)[C@H]3NS(=O)(=O)O)[C@H](O)[C@H]2OS(=O)(=O)O)[C@H](O)[C@H]1NS(=O)(=O)O | Beta-2-glycoprotein 1, domain V (APOH, Homo sapiens, UniProt P02749, V266L) | isothermal titration calorimetry | – | concentration not given, 298 K, with: 150 mM NaCl | – | binding enthalpy ΔH | -4.11 ± 0.637 kcal/mol
Nc1nc2c(ncn2[C@@H]2O[C@H](COP(=O)(O)O)[C@@H](O)[C@H]2O)c(=O)[nH]1 | GUK1 (Homo sapiens, UniProt Q16774, D103A) | binding, ITC | – | – | – | ΔG | -5.49 kcal/mol
C[C@@H](c1ccc(-n2cnc3c(N)ncnc32)cc1)N1CCc2nn(C)c(Cc3ccccc3)c2C1=O | MAP3K13 | KINOMEscan | – | 0.1 µM | reference: DMSO control | remaining binding | 73%
N#Cc1ccn2c(-c3ccncc3)c(-c3ccc(F)cc3)nc2c1 | Protein kinase C-like 1 | kinase binding, competitor, MIB/MS competition, measured: PKC1 | Candida albicans cell lysate | 100 nM | reference: DMSO | log2 fold change | -0.137
C[C@H](O)c1cnc(NS(=O)(=O)c2ccc(C(F)(F)F)c(Cl)c2)nc1 | 17-beta-hydroxysteroid dehydrogenase 13 (Homo sapiens, UniProt Q7Z5P4) | substrate, NADH fluorescence | – | – | – | Km | 29 µM
C1=C/COCc2cc(ccc2OCCN2CCCC2)Nc2nccc(n2)-c2cccc(c2)COC/1 | MAP3K13 | – | – | concentration not given, kinase construct LZK | reference: control | binding | 61%
CC1(C)CC2(C)OC(=O)NC2(C)c2ccccc21 (centres unmarked) | WD repeat-containing protein 55 (WDR55, Homo sapiens, UniProt Q9H6Y2) | binding, affinity selection mass spectrometry | – | – | reference: other proteins in batch | fold enrichment | 0.854
C[C@H](CCC(C)(C)O)[C@H]1CC[C@H]2[C@@H]3CC=C4C[C@@](C)(O)CC[C@]4(C)[C@H]3CC[C@]12C | Glutamate NMDA receptor; GRIN1/GRIN2B (GRIN1/GRIN2B, Homo sapiens, UniProt Q05586+Q13224, R755A) | ion current, positive allosteric modulator, two-electrode voltage clamp | Xenopus oocytes | 10 µM, GluN1-R755A mutant, with: 100 µM glutamate and glycine | reference: absence of compound | current potentiation | 174 ± 6.1%
O=c1cc(-c2ccc([N+](=O)[O-])cc2)[nH]c2c(-c3ccc(Cl)cc3)c(Cc3ccccc3)nn12 | MICAL-like protein 1 (MICALL1, Homo sapiens, UniProt Q8N3F8) | thermal stability, binder, thermal proteome profiling | RD, cell lysate | 50 µM, 0.5% DMSO | reference: DMSO vehicle | melting temperature shift | 3.8 °C
COCCNc1nc2ccc(C#CC3(O)CCCCC3)cc2n1-c1ccnc(N)n1 | Tyrosine-protein kinase Fer (FER, Homo sapiens, UniProt P16591) | enzyme activity, inhibitor, Z'-LYTE | – | 1 µM | reference: no-inhibitor control | remaining kinase activity | 23.6%
COc1cc2c(cc1OC)C(=O)N(CCCCN1CCN(c3ccccc3OC)CC1)C2 | HTR2A | radioligand binding | – | concentration not given, with: [3H]ketanserin | – | inhibition | 90.3%
CC[C@@H](C)[C@@H](NC(=O)[C@@H](Cc1ccc(O)cc1)NC(=O)[C@H]1CCCN1C(=O)[C@@H](CCCNC(=N)N)NC(=O)[C@H](N)Cc1c[nH]cn1)C(=O)N[C@H](C)C(=O)N[C@H](Cc1c[nH]cn1)C(=O)N[C@H](CCCNC(=N)N)C(=O)N[C@@H](C(=O)N[C@H](Cc1ccc(O)cc1)C(=O)N[C@H](CO)C(=O)N[C@H](Cc1ccccc1)C(N)=O)C(C)C | Transferrin receptor protein 1 (Tfrc, Mus musculus, UniProt Q62351) | flow cytometry | DC2.4 | 24 h, pH 7.4, unit not given | reference: 0 h | surface expression | 0.54 and 0.633
COc1cccc(OC[C@@H]2CN(CC(=O)N3CCc4ccccc43)CCO2)c1 | HTR2C | radioligand binding | – | concentration not given, with: [3H]mesulergine | – | inhibition | 34%
c1coc(-c2n[nH]cc2-c2ccnc3ccccc23)c1 | Protein kinase C-like 1 | kinase binding, MIB/MS competition | Candida albicans lysate | 10 µM | reference: DMSO, negative = stronger binding | log2 fold change | -0.13
